Values quoted from earlier work, collected from citations in different studies.
± gives the spread as reported.
DRD2: D(2) dopamine receptor (DRD2, Homo sapiens, UniProt P14416)
Chain of UniProt P14416 (whole entry, looked up): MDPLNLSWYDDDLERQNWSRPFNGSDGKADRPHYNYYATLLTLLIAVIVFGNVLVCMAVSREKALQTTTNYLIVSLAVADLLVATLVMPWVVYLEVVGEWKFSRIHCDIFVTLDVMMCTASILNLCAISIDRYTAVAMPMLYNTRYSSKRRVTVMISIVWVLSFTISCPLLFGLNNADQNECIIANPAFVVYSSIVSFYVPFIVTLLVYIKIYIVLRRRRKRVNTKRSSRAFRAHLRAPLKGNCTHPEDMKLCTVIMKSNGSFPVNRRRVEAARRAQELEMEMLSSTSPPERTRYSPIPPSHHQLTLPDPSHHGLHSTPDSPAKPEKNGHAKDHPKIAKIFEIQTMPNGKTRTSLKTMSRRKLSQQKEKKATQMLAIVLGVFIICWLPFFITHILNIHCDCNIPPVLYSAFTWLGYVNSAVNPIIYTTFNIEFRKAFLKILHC
OfChi-h: Chitinase (OfChi-h, Ostrinia furnacalis, UniProt Q4AE59)
Chain of UniProt P27338 (whole entry, looked up): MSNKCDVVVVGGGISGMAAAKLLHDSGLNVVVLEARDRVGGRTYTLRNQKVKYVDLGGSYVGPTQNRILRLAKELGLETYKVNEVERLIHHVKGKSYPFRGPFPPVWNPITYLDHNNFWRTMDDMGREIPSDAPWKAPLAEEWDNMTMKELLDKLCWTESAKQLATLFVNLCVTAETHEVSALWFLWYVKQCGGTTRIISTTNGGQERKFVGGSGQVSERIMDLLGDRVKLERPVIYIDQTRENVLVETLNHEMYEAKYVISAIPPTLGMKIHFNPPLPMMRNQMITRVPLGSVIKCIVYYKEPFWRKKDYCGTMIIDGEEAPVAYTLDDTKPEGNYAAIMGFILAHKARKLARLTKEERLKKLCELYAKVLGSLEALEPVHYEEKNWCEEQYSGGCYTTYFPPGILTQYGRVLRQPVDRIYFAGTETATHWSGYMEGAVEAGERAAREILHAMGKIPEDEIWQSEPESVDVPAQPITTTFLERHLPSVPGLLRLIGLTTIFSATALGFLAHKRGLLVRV
Chain of UniProt P21554 (whole entry, looked up): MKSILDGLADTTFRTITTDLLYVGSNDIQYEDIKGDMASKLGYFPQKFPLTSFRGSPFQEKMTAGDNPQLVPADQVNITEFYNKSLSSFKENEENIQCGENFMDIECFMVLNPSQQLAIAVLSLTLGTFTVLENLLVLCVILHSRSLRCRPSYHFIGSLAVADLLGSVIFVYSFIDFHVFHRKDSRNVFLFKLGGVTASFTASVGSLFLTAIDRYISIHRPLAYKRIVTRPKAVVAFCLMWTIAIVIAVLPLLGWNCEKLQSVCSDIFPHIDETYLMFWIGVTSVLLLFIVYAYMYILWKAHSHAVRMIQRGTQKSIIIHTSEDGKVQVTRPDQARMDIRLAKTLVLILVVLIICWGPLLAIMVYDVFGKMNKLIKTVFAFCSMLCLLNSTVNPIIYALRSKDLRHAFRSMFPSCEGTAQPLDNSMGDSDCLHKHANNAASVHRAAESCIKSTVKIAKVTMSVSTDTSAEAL

SMILES	target or system	test	system	setting	how to read	quantity	result
O=c1[nH]c(O)nc2c(CN[C@H](CO)CCP(=O)(O)O)c[nH]c12	human HGPRT	inhibitor	–	–	–	Ki	> 100000 nM
O[C@@H]1Cc2cccc(OCCF)c2C[C@H]1N1CCC(c2ccccc2)CC1	vesicular acetylcholine transporter	binding	PC12 expressing VAChT	–	–	Ki	19.6 ± 1.1 nM
COc1ccccc1N1CCC2(CCN(CCCSc3nnc(-c4ccccc4)n3C)CC2)CC1	DRD2	binding	–	–	–	Ki	10900 nM
OCC1OC(n2cnc3c(NCc4ccc(Br)s4)ncnc32)C(O)C1O (stereo not shown)	ENT1 (guinea pig)	binding	membrane fraction	–	–	Ki	50 nM
c1ccc2c(c1)CCNC2c1c[nH]c2ccncc12 (stereo not shown)	COLO 320 ABCB1-resistant colon	cytotoxicity	–	–	–	IC50	> 100 µM
COc1cc2c(cc1NS(=O)(=O)c1cc(Br)ccc1OC)OC(C)(C)C(=O)N2	Bromodomain-containing protein 4, BD1 (BRD4, Homo sapiens, UniProt O60885)	binding	–	bromodomain 1	–	Ki	155 nM
CC(=O)Nc1ccc(C(=O)C=C(O)C(F)(F)C(F)(F)F)cn1	Plasmodium falciparum formate-nitrite transporter	binding, FCCS	isolated protein	–	–	Ki	35 ± 8 nM
Cn1c(SCCCN2CCOC(c3ccc(C(F)(F)F)cc3)C2)nnc1-c1ccc(-c2cnco2)cc1 (stereo not shown)	DRD2	binding	–	–	–	Ki	1480 nM
CCc1c(Cl)cccc1N1CCN(C[C@@H](F)CCNC(=O)c2cc3ccccc3[nH]2)CC1	dopamine D2 receptor	binding	–	–	–	Ki	891 ± 305 nM
COCCCNc1ccc(C(=O)C=C(O)C(F)(F)C(F)(F)F)cn1	Plasmodium falciparum formate-nitrite transporter PfFNT	binding, affinity-isolated protein	–	–	–	Ki	55 nM
CCn1nc(C2CC2)cc1Nc1nc(C(=O)NC)nc2[nH]c3cc(-c4c(C)noc4C)c(OC)cc3c12	Bromodomain-containing protein 4, BD2 (BRD4, Homo sapiens, UniProt O60885)	binding	–	bromodomain 2	–	Ki	1 ± 0.1 nM
O=C(Nc1cc(-c2ccncc2)c[nH]c1=O)c1ccccc1	ITK	–	–	–	–	Ki	1300 nM
O=c1[nH]cnc2c(CNCCCP(=O)(O)O)c[nH]c12	human HGPRT	inhibitor	–	–	–	Ki	1300 ± 30 nM
FC(F)(F)C(F)(F)c1nc(-c2cccnc2)n[nH]1	Plasmodium falciparum formate-nitrite transporter	binding, FCCS	isolated protein	–	–	Ki	1610 ± 298 nM
Cn1cc2c3c(c[nH]c(=O)c31)CN(c1ccccn1)c1ccc(CS(C)(=O)=O)cc1-2	BRD4	inhibitor	–	–	–	Ki	13 nM
CC(C)=CCc1c(O)cc2oc3cc(O)c(O)c(CC=C(C)C)c3c(=O)c2c1O	OfChi-h	–	–	–	–	Ki	3900 nM
NS(=O)(=O)c1nnc(NC(=O)CN2CCOCC2)s1	Enterococcus faecalis gamma-carbonic anhydrase	enzyme activity, inhibitor	–	–	–	Ki	56.4 nM

SMILES	target or system	test	system	setting	how to read	quantity	result
O=c1[nH]cnc2c(CN[C@@H](CO)CCP(=O)(O)O)c[nH]c12	human HGPRT	inhibitor	–	–	–	Ki	16000 ± 1000 nM
COc1ccccc1N1CCN(CCCCNC(=O)c2ccc3[nH]c(=O)sc3c2)CC1	DRD2	binding	–	–	–	Ki	52.1 nM
CCN(CC)c1ccc(C(=O)C=C(O)C(F)(F)C(F)(F)F)cn1	Plasmodium falciparum formate-nitrite transporter	binding, FCCS	isolated protein	–	–	Ki	142 ± 24 nM
O=c1ccc(OCCCN2CCCCC2)nn1-c1ccc(Cl)c(Cl)c1	CNR1 (Homo sapiens, UniProt P21554)	–	–	1.0 µM	–	inhibition	19.3 ± 2.4%
O=C(C=C(O)C(F)(F)C(F)(F)F)c1cccs1	Plasmodium falciparum formate-nitrite transporter	binding, FCCS	isolated protein	–	–	Ki	45 ± 25 nM
COc1ccc(Nc2nc(Nc3ccc(OCC[18F])cc3)ncc2Br)cc1	–	–	S180 tumour-bearing mice	intravenous, 15 min	relative to: tumour over bone	tumour to tissue ratio	1.89
O=c1c(-c2ccc(F)cc2)c[nH]c2ccnc(Cl)c12	WDR5	–	–	–	–	Ki	3130 nM
CC(C)CNc1ccc(C(=O)C=C(O)C(F)(F)C(F)(F)F)cn1	Plasmodium falciparum formate-nitrite transporter	binding, FCCS	isolated protein	–	–	Ki	30 ± 3 nM
CN(C)c1nc(NCc2ccccc2)c(/N=N/c2ccc(Cl)cc2)c(N(C)C)n1	OfChi-h	–	–	–	–	Ki	64.7 nM
Cc1cc2c(c(O)c1O)C(=O)c1c(O)cc(O)cc1C2=O	MAOB (Homo sapiens, UniProt P27338)	–	–	–	–	Ki	2410 nM
COC(F)(F)C(F)(F)C(O)=CC(=O)c1cccnc1	Plasmodium falciparum formate-nitrite transporter	binding, FCCS	isolated protein	–	–	Ki	93 ± 2 nM
O=c1[nH]c(O)nc2c([C@@H]3N[C@H](COP(=O)(O)O)[C@@H](O)[C@H]3O)c[nH]c12	human HGPRT	inhibitor	–	–	–	Ki	> 100000 nM
O=C(C=C(O)C(F)(F)C(F)(F)F)c1ccc(NCC2CC2)nc1	Plasmodium falciparum formate-nitrite transporter	binding, FCCS	isolated protein	–	–	Ki	18 ± 3 nM
CN(C)Cc1ccccc1Sc1ccc(C#N)cc1N	serotonin transporter	–	–	–	–	Ki	1.1 nM
Nc1nc2c(CNCCCP(=O)(O)O)c[nH]c2c(=O)[nH]1	human HGPRT	inhibitor	–	–	–	Ki	1000 ± 5 nM
O=C(/C=C/c1ccc(O)c(O)c1)OC1CC(O)(C(=O)O)CC(OC(=O)/C=C/c2ccc(O)c(O)c2)C1O (stereo not shown)	OfChi-h	–	–	–	–	Ki	26900 nM
c1ccc2c(C3NCCc4sccc43)c[nH]c2c1 (stereo not shown)	COLO 320 ABCB1-resistant colon	cytotoxicity	–	–	–	IC50	12.9 µM
